Published values of several laboratories.
Numbers after ± are the reported error.

SMILES = COc1cccc(OC)c1-c1cc(C(=O)NC2(C(=O)O)C3CC4CC(C3)CC2C4)nn1-c1ccc(C(=O)N(C)CCOCCN(C)C(=O)[C@H](CCCCNC(=O)[C@H](CC(C)C)NC(=O)C2OC2C(=O)O)NC(=O)CN2CCN(CC(=O)[O-])CCN(CC(=O)[O-])CCN(CC(=O)[O-])CC2)cc1C(C)C.[177Lu+3] (mixture of isomers); test system = mouse, HT-29 xenograft, brain; setting = 4 h post injection; endpoint = tissue uptake; result = 0.18 %ID/g
SMILES = N#C[C@@H]1CC(F)(F)CN1C(=O)CNC(=O)c1ccnc2c(NC(=O)[C@H](CCCCNC(=O)CCOCCOCCOCCOCCOCCOCCNC(=O)CN3CCN(CC(=O)[O-])CCN(CC(=O)[O-])CCN(CC(=O)[O-])CC3)NC(=O)CCCc3ccc(I)cc3)cccc12.[177Lu+3]; test system = mouse, U-87 MG tumour xenograft, kidneys; setting = 48 h; endpoint = tissue uptake; result = 0.87 ± 0.36 %ID/g
SMILES = CCn1ncc(CN2CCCC(C(=O)c3cccc(OC(C)C)c3)C2)c1C (stereo not drawn); target or system = Trypanosoma cruzi; assay = reporter mRNA translation, inhibitor, measured: capped polyadenylated Renilla luciferase mRNA; test system = cell-free extract; setting = concentration not given; how to read = reference: control RNA; endpoint = relative translation; result = 108%
SMILES = O=C(NCC1OC2CCC=CCCC2O1)c1ccc(COCCOCCOCC[18F])cc1 (stereo not drawn); test system = healthy female BALB/c nude mice, pancreas; setting = intravenous, 7.4 MBq per mouse, 30 min; endpoint = tissue uptake; result = 2 ± 0.1 %ID/g
SMILES = [123I]c1ccc2nc(-c3ccc(-n4ccnn4)nc3)cn2c1; test system = Wistar rat, male, adrenals; setting = intravenous, 4 MBq, 1 h; endpoint = tissue uptake; result = 7.75 ± 0.994 %ID/g
SMILES = [11CH3]N1CCC(NC(=O)c2cc(-c3c(O)cc(O)cc3Oc3ccc([N+](=O)[O-])cc3)on2)CC1; test system = Wistar rat, female, healthy, kidneys; setting = intravenous, 60 min; endpoint = tissue uptake; result = 2.1 ± 0.4 %ID
SMILES = CCCC[C@H](NC(=O)CCCCCCCNC(=O)CN1CCN(CC(=O)O)CCN(CC(=O)O)CC1)C(=O)N[C@H]1CC(=O)NCCCC[C@@H](C(N)=O)NC(=O)[C@H](Cc2c[nH]c3ccccc23)NC(=O)[C@H](CCCNC(=N)N)NC(=O)[C@@H](Cc2ccccc2)NC(=O)[C@H](Cc2c[nH]cn2)NC1=O [technetium-99m labelled]; test system = C57 mouse, pancreas; setting = intravenous, 0.037 MBq, 0.5 h; endpoint = tissue uptake; result = 0.21 ± 0.22 %ID/g
SMILES = COc1cccc(OC)c1-c1cc(C(=O)NC2(C(=O)O)C3CC4CC(C3)CC2C4)nn1-c1ccc(C(=O)N(C)CCCN(C)C(=O)[C@H](CCCCNC(=O)[C@H](CC(C)C)NC(=O)C2OC2C(=O)O)NC(=O)CN2CCN(CC(=O)[O-])CCN(CC(=O)[O-])CCN(CC(=O)[O-])CC2)cc1C(C)C.[177Lu+3] (mixture of isomers); test system = mouse, HT-29 xenograft, lung; setting = 72 h post injection; endpoint = tissue uptake; result = 0.24 %ID/g
SMILES = CN(C)c1ccc(CNCCC2CCOC(C)(C)C2)cc1.Cl (stereo not drawn); target or system = Trypanosoma cruzi; assay = reporter mRNA translation, inhibitor, measured: capped polyadenylated Renilla luciferase mRNA; test system = cell-free extract; setting = concentration not given; how to read = reference: control RNA; endpoint = relative translation; result = 105%
SMILES = COc1cccc(OC)c1-c1cc(C(=O)NC2(C(=O)O)C3CC4CC(C3)CC2C4)nn1-c1ccc(C(=O)N(C)CCCN(C)CCCN(C)C(=O)[C@H](CCCCNC(=O)[C@H](CC(C)C)NC(=O)C2OC2C(=O)O)NC(=O)CN2CCN(CC(=O)[O-])CCN(CC(=O)[O-])CCN(CC(=O)[O-])CC2)cc1C(C)C.[177Lu+3] (mixture of isomers); test system = mouse, HT-29 xenograft, brain; setting = 4 h post injection; endpoint = tissue uptake; result = 0.36 %ID/g
SMILES = CC(C)c1noc(C2CCN(c3ncnc(Nc4ccc(OCC[18F])cc4)c3[N+](=O)[O-])CC2)n1; assay = ex vivo biodistribution after PET; test system = C57BL/J male mice, muscle; setting = 60 min; endpoint = tissue uptake; result = 0.11 ± 0.05 %ID/g
SMILES = CC(C)Cc1ccc(C(C)C(=O)N[C@@H](CCCCNC(=O)CCOCCOCCOCCOCCOCCOCCNC(=O)CN2CCN(CC(=O)[O-])CCN(CC(=O)[O-])CCN(CC(=O)[O-])CC2)C(=O)Nc2cccc3c(C(=O)NCC(=O)N4CC(F)(F)C[C@H]4C#N)ccnc23)cc1.[177Lu+3] (stereo partly drawn); test system = mouse, U-87 MG tumour xenograft, kidneys; setting = 24 h; endpoint = tissue uptake; result = 0.95 ± 0.25 %ID/g

Some of these lines once more:
SMILES = CC(C)c1noc(C2CCN(c3ncnc(Nc4ccc(OCC[18F])cc4)c3[N+](=O)[O-])CC2)n1; assay = ex vivo biodistribution after PET; test system = C57BL/J male mice, muscle; setting = 60 min; endpoint = tissue uptake; result = 0.11 ± 0.05 %ID/g
SMILES = CC(C)Cc1ccc(C(C)C(=O)N[C@@H](CCCCNC(=O)CCOCCOCCOCCOCCOCCOCCNC(=O)CN2CCN(CC(=O)[O-])CCN(CC(=O)[O-])CCN(CC(=O)[O-])CC2)C(=O)Nc2cccc3c(C(=O)NCC(=O)N4CC(F)(F)C[C@H]4C#N)ccnc23)cc1.[177Lu+3] (stereo partly drawn); test system = mouse, U-87 MG tumour xenograft, kidneys; setting = 24 h; endpoint = tissue uptake; result = 0.95 ± 0.25 %ID/g
